Published values of several laboratories.
Each line is one published result; not all experiments were run side by side. “And” joins repeats or separate records; there may be more than shown. ± gives the spread as reported.

NC(=O)c1cnc2[nH]ccc2c1N[C@@H]1[C@@H]2CC3C[C@H]1C[C@@](O)(C3)C2
change from baseline (flow cytometry, measured: CD4+ memory T cells; Japanese healthy subjects, peripheral blood; oral, 100 mg twice daily, day 4): -1.03%

Cc1cc(O)c2c(c1)C(=O)c1cc(O)cc(O)c1C2=O
cell viability (HepaRG co-cultured with HK-2; MTT; 266.67 µM, 48 h; reference: untreated control): 20.2 ± 2.33%

COc1nnc2ccc(N3CCC(c4ccc(OCCN5CCN(C)C(=O)[C@H]5C)cc4)CC3)nn12
time above HEXIM1 threshold (human patients; 20 mg twice daily, 2-fold above baseline): 5.48 h

Cc1nc(-c2ccc(OCC(C)C)c(C#N)c2)sc1C(=O)O
serum uric acid (male mouse, acute hyperuricaemia model, serum; oral, 2 mg/kg, 4 h): 178 µM

O=C(O)C[C@H](O)C[C@H](O)/C=C/c1c(C2CC2)nc2ccccc2c1-c1ccc(F)cc1
necrotic cells (COS-7; 10 µM, 24 h, 0.1% DMSO, unit not given; reference: vehicle control): 0.7 ± 0.03

C[C@@H](NC(=O)N1C(=O)[C@H](Cc2ccnc(N)c2)[C@H]1C(=O)O)C1CCCCC1
aPTT AUEC (human; iv infusion, 1.5 mg/kg/h, 24 h, unit not given; reference: baseline): 234

O=C(O)CNC(=O)Cc1ccccc1
sarcomere length (ventricular cardiomyocytes, C57BL/6 mouse; dose not given, 0.408 s): 1.72 µm

FC(F)(F)Oc1cccc(-c2cnc3ccc(-c4ccncc4)nn23)c1
tumour size (MDA-MB-231 xenograft, NSG mouse; oral, 10 mg/kg daily, day 17; higher = larger tumour): 0.211 a.u. and 0.126 a.u. and 0.148 a.u. and 0.225 a.u. and 0.172 a.u. and 0.272 a.u. and 0.184 a.u.

CC1(C)CCC(CN2CCN(c3ccc(C(=O)NS(=O)(=O)c4ccc(NCC5CCOCC5)c([N+](=O)[O-])c4)c(Oc4cnc5[nH]ccc5c4)c3)CC2)=C(c2ccc(Cl)cc2)C1
EC50 (cell killing; canine blood CD3+ T cells, dog 39; 24 h): 667 nM

CC(C)C[C@H](NC(=O)[C@@H](Cc1c[nH]c2ccccc12)NC(=O)[C@H](Cc1ccc(O)cc1)NC(=O)[C@H](CO)NC(=O)[C@H](Cc1c[nH]c2ccccc12)NC(=O)[C@H](Cc1c[nH]cn1)NC(=O)[C@@H]1CCC(=O)N1)C(=O)N[C@@H](CCCNC(=N)N)C(=O)N1CCC[C@H]1C(=O)NCC(N)=O
basal LH level (Chinese children, central precocious puberty, serum; intramuscular, 22.5 mg day 1, month 6, month 3): 0.36 IU/L

OC[C@H]1O[C@@H](c2ccc(Cl)c(Cc3ccc(O[C@H]4CCOC4)cc3)c2)[C@H](O)[C@@H](O)[C@@H]1O
systolic blood pressure change (Japanese type 1 diabetes patients; 25 mg, day 7, 168 h; reference: baseline): -0.4 mmHg

CCN1CCN(Cc2ccc(Nc3ncc(F)c(-c4cc(F)c5nc6n(c5c4)[C@H](C)CCC6)n3)nc2)CC1
complete response (human advanced solid tumours; 400 mg, phase Ia monotherapy RECIST 1.1): 0%

c1ccc(-c2cc(-c3ccccc3)n(Cn3ccnc3)n2)cc1
wound size (rat, STZ-nicotinamide diabetic; 150 mg/kg, 72 h, full-thickness excision wound): 17.4 mm

Cc1c(Cl)c(C)[n+]([O-])c(Cl)c1-c1noc(-c2cc(O)c(O)c([N+](=O)[O-])c2)n1
Vmax (sulfation, substrate; human liver S9): 0.367 ± 0.015 pmol/min/mg protein

CCCS(=O)(=O)NC(=O)c1cc2ccccc2n1Cc1ccc(C2CC2)c2ccccc12
serum uric acid (male mouse, acute hyperuricaemia model, serum; oral, 2 mg/kg, 4 h): 287 ± 98.7 µM

C=Cc1ccccc1
activation free energy ΔG‡ (iEDDA reaction; methanol/water; 21 °C, together with: tetrazine): 19.8 kcal/mol

NNC(=O)c1ccncc1
TNF-α level (ELISA; Mycobacterium marinum-infected mice, skin; intraduodenal, 10 mg/kg three times daily, 3 days post infection): 136 pg/mL and 182 pg/mL

CCN1CCN(c2cc(N3CCN(CC)CC3)nc(NCCNc3ccnc4cc(Cl)ccc34)n2)CC1
necrotic cells (COS-7; 10 µM, 24 h, 0.1% DMSO, unit not given; reference: vehicle control): 0.42 ± 0.21

CC(C)NCC(O)c1ccc(O)c(O)c1 (stereo not shown)
sarcomere length (ventricular cardiomyocytes, C57BL/6 mouse; dose not given, 0.316 s): 1.72 µm

COc1c(Cl)cccc1Nc1c(-c2ccncc2OC[C@@H]2COCCO2)[nH]c2c1C(=O)NCC2
tumour shrinkage (human; oral, 20 mg twice daily, 18 weeks): 52%

C[C@H]1C[C@H]2CSC(N)=N[C@@]2(c2nc(NC(=O)c3ccc(OC(F)F)cn3)cs2)CO1
plasma Aβ1-40 change (healthy adults, fed, plasma; oral, 200 mg single dose, 8 h; reference: baseline, placebo-adjusted): -80.7%

O=C(O)CCc1nccc2c1[nH]c1ccccc12
serum uric acid decrease (mouse acute hyperuricaemia model; dose not given): 41.7%

N#Cc1ccc2c(c1)[C@H]1CCCN(C(=O)c3ccc4[nH]cnc4c3)[C@H]1C2
HbA1c change from baseline (human clinical trial; oral, 240 mg once daily, 28 d): 0%

N=C(N)NCCC[C@H](NC(=O)[C@H](CCCNC(=N)N)NC(=O)[C@H](CCCCN)NC(=O)[C@H](CCC(N)=O)NC(=O)[C@H](CCCCN)NC(=O)[C@H](Cc1ccc(O)cc1)NC(=O)[C@@H](N)CCCCN)C(=O)N[C@@H](CO)C(=O)N[C@@H](Cc1ccc(O)cc1)C(=O)N[C@@H](CCCCN)C(=O)O
VAS score (dentin hypersensitivity patients; 10 µg/tooth, day 36 post-study visit, two teeth per subject; direction not given): 63.3 ± 17.2

C=CCn1c(=O)c2cnc(Nc3ccc(N4CCN(C)CC4)cc3)nc2n1-c1cccc(C(C)(C)O)n1
tumour size change (RECIST; HNSCC patients; dose not given, single agent first week, then cisplatin/docetaxel): -16%

CC(C)C[C@H](NC(=O)C[C@H](O)[C@H](CC(C)C)NC(=O)[C@H](Cc1c[nH]cn1)NC(=O)CNC(=O)[C@@H](NC(=O)[C@H](C)NC(=O)[C@H](Cc1c[nH]c2ccccc12)NC(=O)[C@H](CCC(N)=O)NC(=O)[C@@H](Cc1ccccc1)NC(=O)COCCOCCNC(=O)CCC(C(=O)O)N1CCN(CC(=O)O)CCN(CC(=O)O)CCN(CC(=O)O)CC1)C(C)C)C(N)=O (stereo partly shown) [lutetium-177 labelled]
tissue uptake (BALB/c nu/nu mice, female, bladder; 100 pmol, 30 min, time course 0.5 h, together with: PA 300 µg): 81 ± 64 %ID/g

O=C(O)/C=C/c1nccc2c3ccccc3n(Cc3ccc(Br)cc3)c12
serum uric acid (mouse, acute hyperuricaemia model, serum; oral, 2 mg/kg, individual animal data): 743 µM and 965 µM and 719 µM and 990 µM

CCOc1cc(/C=C2\CN(C(C)=O)CC3=C2OC(N)=C(C#N)C3c2ccc(O)c(OCC)c2)ccc1O (stereo not shown)
tumour volume (rats, DMBA-induced mammary tumours; dose not given, day 42): 0.056 ± 0.007 cm3

N#Cc1ccc2c(-c3ccncc3)c(-c3ccc(F)cc3)nn2c1
log2 fold change (kinase binding, competitor, MIB/MS competition, measured: RIO2; Candida albicans cell lysate; 10 µM; reference: DMSO): -0.275

[Cl-].[Cl-].[Pt+2].[Ru+2].c1ccc(-c2nccnc2-c2ccccn2)nc1.c1cnc2c(c1)ccc1cccnc12.c1cnc2c(c1)ccc1cccnc12
activation enthalpy (concentration not given, second substitution step, together with: thiourea): 9.32 ± 0.717 kcal/mol

Cc1ccc(NC(=O)c2ccnc(C(F)(F)F)c2)cc1-c1cc(OCCO)nc(N2CCOCC2)c1
disease control rate (MAPK-altered advanced solid tumour patients; dose not given, single-agent dose escalation): 36.8%

OC(CCN1CCCCC1)(c1ccccc1)C1CC2C=CC1C2 (stereo not shown)
EEG Beta1-power Pz-O2 (resting-state EEG; healthy elderly humans; oral, 2 mg, eyes closed, LS mean): 4.5 µV²

CC(=O)c1c(C)cc2cc(O)cc(O[C@@H]3O[C@H](CO)[C@@H](O)[C@H](O)[C@H]3O)c2c1O
cell viability (HepaRG co-cultured with HK-2; MTT; 266.67 µM, 48 h; reference: untreated control): 58.6 ± 4.02%

CO[C@H]1CC[C@H](N2C(=O)CNc3ncc(-c4ccc(C(C)(C)O)nc4)nc32)CC1
pS6RP change from baseline (flow cytometry; stimulated B cells, human, blood; 30 mg single dose, 1.5 h, mean; reference: baseline): -65.2%

Excerpt of the above:
CCCS(=O)(=O)NC(=O)c1cc2ccccc2n1Cc1ccc(C2CC2)c2ccccc12
serum uric acid (male mouse, acute hyperuricaemia model, serum; oral, 2 mg/kg, 4 h): 287 ± 98.7 µM

C=Cc1ccccc1
activation free energy ΔG‡ (iEDDA reaction; methanol/water; 21 °C, together with: tetrazine): 19.8 kcal/mol
